Measurements from different studies.
Lines come from different studies, so protocols differ. Values joined by “and” are separate records of one study, mostly repeats; a detail may differ. ± gives the spread as reported.

Compound	assay	system	conditions	scale	measurement	result
N#Cc1ccc2c(c1)[C@H]1CCCN(C(=O)c3ccc4[nH]cnc4c3)[C@H]1C2	refers to: Triglycerides	human	240 mg once daily, day 28, adjusted mean	relative to: placebo	change from baseline	-39.3 mg/dL
Cc1n[nH]c2ccc(-c3cc(OC[C@@H](N)Cc4ccccc4)cnc3-c3ccoc3)cc12	kinase binding, competitor, MIB/MS competition, refers to: SAK1	Candida albicans cell lysate	10 µM	relative to: DMSO	log2 fold change	-0.482
CC(C)NCC(O)c1ccc(O)c(O)c1 (stereo not drawn)	–	ventricular cardiomyocytes, C57BL/6 mouse	dose not given, 0.5 s	–	sarcomere length	1.52 µm
Cc1c(C)c2c(c(C)c1O)CCC(C)(COc1ccc(CC3SC(=O)NC3=O)cc1)O2 (stereo not drawn)	deuterium-hydrogen exchange	aqueous phosphate buffer	pH 7.4, 37 °C	–	exchange rate constant	-0.11 h⁻¹
O=C(OC(C(F)(F)F)C(F)(F)F)N1CCN(Cc2cccc(Oc3ccccc3)c2)CC1	PET	rhesus monkey, frontal cortex	intravenous, 0.01 mg/kg, pretreatment blocking, together with: [18F]T-401	–	tracer distribution volume	11.2 mL/cm3
Cc1cc(C)c(CNC(=O)c2cc(Cl)c3c(c2C)O[C@@](C)([C@H]2CC[C@H](N(C)C)CC2)O3)c(=O)[nH]1	–	relapsed/refractory NHL patients, PTCL	oral, dose not given	–	best overall response ND	7.7%
OC(CCN1CCCCC1)(c1ccccc1)C1CC2C=CC1C2 (stereo not drawn)	resting-state EEG	healthy elderly humans	oral, 4 mg, eyes closed, LS mean	relative to: baseline	change in EEG Beta1-power Pz-O2	-15.8%
CN(C)C(=O)Oc1cccc([N+](C)(C)C)c1	neuromuscular block reversal	rat	dose not given, 15 (unit not given), together with: cisatracurium	relative to: T1 twitch	train-of-four ratio	96.6
c1ccc(-c2n[nH]cc2-c2ccnc3ccccc23)nc1	kinase binding, competitor, MIB/MS competition, refers to: IKS1	Candida albicans cell lysate	1 µM	relative to: DMSO	log2 fold change	1.31
CCCCc1oc2ccccc2c1C(=O)c1cc(I)c(OCCN(CC)CC)c(I)c1	Holter ECG	dog, persistent AF model	iv, 3 mg/kg	–	time to AF recurrence	12.9 h
CNCc1cc(-c2ccccc2F)n(S(=O)(=O)c2cccnc2)c1	esophageal lesions	rat reflux esophagitis model	oral, 1 mg/kg	–	inhibition	38.3%
CO[C@@H](C(=O)N1Cc2n[nH]c(NC(=O)c3ccc(N4CCN(C)CC4)cc3)c2C1)c1ccccc1	–	patients with advanced solid tumours	dose not given, together with: G-CSF	–	discontinuation due to disease progression	88%
C[C@H](NC(=O)c1c(C(F)F)nn(C)c1Oc1cccc(C(F)(F)F)c1)c1ccc(C(=O)O)cc1	irRECIST	human, advanced tumours	125 mg	best overall response	not evaluable	37.5%
COc1nnc2ccc(N3CCC(c4ccc(OCCN5CCN(C)C(=O)[C@H]5C)cc4)CC3)nn12	qPCR, refers to: BRD4 target genes HIST2H2BF, HEXIM1, CD274, CCR2	human, peripheral blood	concentration not given	–	time to return to baseline	24 h
NC(=O)c1cnc2[nH]ccc2c1N[C@@H]1[C@@H]2CC3C[C@H]1C[C@@](O)(C3)C2	CD4+ effector T cells, flow cytometry	Japanese humans, peripheral blood	60 mg single dose	relative to: baseline	percent change	0.15%
CCCCc1nc2c(N)nc3ccccc3c2n1Cc1ccc(N)cc1	IFN-γ release, ELISA	PBMC, human	24 h	–	concentration	~10 µM
COc1ncnn2ccc(-c3cnc4nc(C)n(Cc5nnc([C@@H](C)F)o5)c4c3)c12	–	relapsed or refractory AML, MDS	dose not given, splicing factor mutation-negative	–	best overall response PR	0%
O=C(COc1ccc(Cl)cc1)NC12CC(c3nnc([C@H]4C[C@@H](OC(F)(F)F)C4)o3)(C1)C2	–	healthy human, PBMC	145 mg once daily, day 15, 24 h post-dose, median, together with: sodium arsenite ex vivo	relative to: baseline	ATF4 protein change	-69.1%
N#Cc1ccc2c(c1)[C@H]1CCCN(C(=O)c3ccc4[nH]cnc4c3)[C@H]1C2	–	T2DM patients with overweight or obesity, urine	oral, 20 mg, day 14, 0-24 h, multiple dosing, adjusted geometric mean	relative to: baseline day -1, -24-0 h	total urinary corticosteroid excretion	199%
COc1cc(Nc2ncc3c(n2)-c2ccc(Cl)cc2C(c2c(F)cccc2OC)=NC3)ccc1C(=O)O	–	mouse, OS-1 osteosarcoma xenograft	2.6 mg/kg	direction not given	median response score	2
Cc1ccc(C(=O)OCc2ccc([C@@H](CN)C(=O)Nc3ccc4cnccc4c3)cc2)c(C)c1	tonometry	Macaca cyclopis, ocular normotensive	ocular, 0.02%, 24 h	–	IOP	18.3 mmHg
N#Cc1ccc2c(-c3ccncc3)c(-c3ccc(F)cc3)nn2c1	kinase binding, competitor, MIB/MS competition, refers to: IKS1	Candida albicans cell lysate	10 µM	relative to: DMSO	log2 fold change	-0.355
C=CCn1c(=O)c2cnc(Nc3ccc(N4CCN(C)CC4)cc3)nc2n1-c1ccc2c(n1)[C@@](O)(CC)CC2	–	SK-OV-3 xenograft, NOD/SCID mice	oral, 80 mg/kg, day 17, once daily intermittent x 3 cycles	–	tumour volume difference	458 ± 17.1 mm3
CN[C@@H](C)C(=O)N[C@H]1CN(S(=O)(=O)c2cccc(S(=O)(=O)N3CC[C@H]4CC[C@@H](C(=O)NC(c5ccccc5)c5ccccc5)N4C(=O)[C@@H](NC(=O)[C@H](C)NC)C3)c2)CC[C@H]2CC[C@@H](C(=O)NC(c3ccccc3)c3ccccc3)N2C1=O	RECIST 1.1	advanced pancreatic cancer patients	dose not given, efficacy-evaluable, together with: AG	–	best response stable disease	40%

Compound	assay	system	conditions	scale	measurement	result
O=C1Nc2cc3[nH]nc(-c4ccncc4)c3cc2CN1Cc1ccccc1	RECIST v1.1	human, relapsed or refractory advanced solid tumours	intravenous, 0.9 mg/kg, pooled schedules	–	complete response, best response	0%
Nc1cc(C(F)(F)F)c(-c2cc(N3CCOCC3)nc(N3CCOCC3)n2)cn1	–	human	100 mg/day	relative to: baseline	best change in target lesions	5.29% and 11.7% and 0%
C[C@H](Oc1ccc(Br)cc1-c1ccon1)C(=O)O	relative refractory period	human, tibialis anterior muscle	1200 mg, SAD	–	difference from placebo	0.16 ms
CN1CC[C@@H](c2c(O)cc(O)c3c(=O)cc(-c4ccc(C(F)(F)F)cc4Cl)oc23)[C@@H]1CO	RNA-seq	PBMC, human, AML	100 to 200 mg, 6 h, 6 patients	–	significantly deregulated genes	11 genes
C[C@H]1O[C@@H](O[C@H]2CC[C@@]3(C)[C@@H](CC[C@]4(C)[C@@H]3C=C[C@]35OC[C@@]6(CCC(C)(C)C[C@H]63)[C@@H](O)C[C@]54C)[C@]2(C)CO)[C@H](O)[C@@H](O[C@@H]2O[C@H](CO)[C@@H](O)[C@H](O)[C@H]2O)[C@H]1O	–	pair-fed control mice, no ethanol, plasma	oral, 15 mg/kg/day	–	triglyceride level	0.757 mM and 0.694 mM and 0.779 mM and 0.722 mM and 0.675 mM and 0.748 mM
CC1(C)CCC(c2ccc(Cl)cc2)=C(CN2CCN(c3ccc(C(=O)NS(=O)(=O)c4ccc(N[C@H](CCN5CCOCC5)CSc5ccccc5)c(S(=O)(=O)C(F)(F)F)c4)cc3)CC2)C1	cell killing, flow cytometry PI exclusion	canine blood CD21+ B cells, dog 39	24 h	–	EC50	945 nM
CCN1CCN(Cc2ccc(Nc3ncc(F)c(-c4cc(F)c5nc6n(c5c4)[C@H](C)CCC6)n3)nc2)CC1	–	human advanced solid tumours	200 mg, phase Ia monotherapy RECIST 1.1	–	not evaluable response	0%
COc1cc(O)c(CC=C(C)C)c(O)c1C(=O)/C=C/c1ccc(O)cc1	glucose tolerance test	Tac:SW mice (male, conventional, high-fat diet)	in diet, 60 mg/kg per day, 30 min after glucose, after 10 weeks	–	blood glucose	266 mg/dL
CNC(=O)c1ccc(N2C(=S)N(c3ccc(C#N)c(C(F)(F)F)c3)C(=O)C2(C)C)cc1F	western blot	NRG mouse male, CWR22Rv1 xenograft, tumour	dose not given, 16 days	–	AR-V7 protein level	no effect
N#Cc1ccn2c(-c3ccncc3)c(-c3ccc(F)cc3)nc2c1	kinase binding, competitor, MIB/MS competition, refers to: KSP1	Candida albicans cell lysate	1 µM	relative to: DMSO	log2 fold change	-0.765
O=C(O)CNC(=O)Cc1ccccc1	–	ventricular cardiomyocytes, C57BL/6 mouse	dose not given, 0.488 s	–	sarcomere length	1.65 µm
CCCCCN1C[C@H](O)[C@@H](O)[C@H](O)[C@@H]1CO	–	Hexb-/- mouse, cerebral cortex	30 mg/kg/day, unit not given	relative to: untreated	decreased sphingolipid species	1
C=Cc1c(C)c2cc3nc(c(CC(=O)O)c4[nH]c(cc5nc(cc1[nH]2)C(C)=C5CC)c(C)c4C(=O)O)[C@@H](CCC(=O)O)[C@@H]3C	flow cytometry	mouse, 4T1 tumour-bearing	dose not given, 1 h	–	Treg cells	5.48% and 5.39% and 5.13%
CN[C@@H]1COc2c(S(=O)(=O)NC(=O)Nc3c4c(cc5c3CCC5)CCC4)cnn2C1	refers to: IL-1β	human participants, whole blood ex vivo	300 mg twice daily, multiple doses, 144 h, together with: LPS/ATP	relative to: baseline	inhibition	96.2%
COc1ccc2c(c1)CN(C(=O)CCN1CCC(Cc3ccccc3)CC1)CC[S@@+]2[O-]	–	anaesthetised Beagle dogs	intravenous, 0.1 mg/kg, pacing cycle length 360 ms	–	ventricular ERP prolongation	11.2%
Cc1cc(C)c(CNC(=O)c2cc(Cl)c3c(c2C)O[C@@](C)([C@H]2CC[C@H](N(C)C)CC2)O3)c(=O)[nH]1	modified 2009 ATLL criteria	human, relapsed/refractory adult T-cell leukaemia-lymphoma	dose not given	–	best overall response PD	21%
Cc1c(C)n(Cc2cccc(OC(C)(C)C(=O)O)c2)c2ccc(C(=O)N[C@@H](C)c3ccc(C(C)(C)C)cc3)cc12	–	C57BL/6 mouse, diet-induced obesity, L4 vertebra	dose not given	relative to: control	bone volume change	0%
CSCCNc1nc(SCCC(F)(F)F)nc2c1ncn2[C@@H]1O[C@H](COP(=O)(O)OP(=O)(O)C(Cl)(Cl)P(=O)(O)O)[C@@H](O)[C@H]1O	platelet aggregation, light transmission aggregometry	human patients, platelet-rich plasma	dose not given, 1 h, inhibition threshold 90%, together with: TRAP 5 µM	–	patients with inhibition above threshold	0%
C[C@H](CS)C(=O)N1CCC[C@H]1C(=O)O	LC-MS/MS, refers to: extracellular Leu-enkephalin	mouse striatal brain slices	10 µM, 20 min, together with: 50 mM KCl	–	Leu-enkephalin concentration	660 pM and 1010 pM and 1120 pM and 561 pM and 736 pM
OC[C@H]1O[C@@H](c2ccc(Cl)c(Cc3ccc(O[C@H]4CCOC4)cc3)c2)[C@H](O)[C@@H](O)[C@@H]1O	–	Japanese type 1 diabetes patients	2.5 mg, day 7, 168 h	relative to: baseline	diastolic blood pressure change	1.2 mmHg
COc1cc2cc(-c3ccc(CC(=O)Nc4cc(C(C)(C)C(F)(F)F)no4)cn3)cnc2cc1OC	RECIST v1.1	human RET-altered solid tumours	dose not given, phase I parts A and B	–	best overall response PD	23%
C[C@H]1C[C@H]2CSC(N)=N[C@@]2(c2nc(NC(=O)c3ccc(OC(F)F)cn3)cs2)CO1	refers to: Aβ1-40	healthy adults, plasma	540 mg single dose, 24 h post-dose	relative to: placebo	percent change from baseline	-89.4%
COc1ccc2c(c1)CN(Cc1ccc(C(=O)O)cc1)CCS2	–	exercised mdx mice	50 mg/kg, 1 weeks	–	forelimb grip strength	0.153 ± 0.007 kgf
CC(C)[C@H](C(=O)Nc1ccc(C(=O)NO)cc1)c1ccccc1	volumetric MRI	human, right vagal schwannoma	dose not given, day 995	–	tumour growth rate	12.3 %/year

Some of these lines once more:
Compound	assay	system	conditions	scale	measurement	result
O=C(O)CNC(=O)Cc1ccccc1	–	ventricular cardiomyocytes, C57BL/6 mouse	dose not given, 0.488 s	–	sarcomere length	1.65 µm
CCCCCN1C[C@H](O)[C@@H](O)[C@H](O)[C@@H]1CO	–	Hexb-/- mouse, cerebral cortex	30 mg/kg/day, unit not given	relative to: untreated	decreased sphingolipid species	1
CC(C)NCC(O)c1ccc(O)c(O)c1 (stereo not drawn)	–	ventricular cardiomyocytes, C57BL/6 mouse	dose not given, 0.5 s	–	sarcomere length	1.52 µm
